Published values collected from several papers.
Each line is one published result; not all experiments were run side by side.
Organism: Mycobacterium tuberculosis

N#Cc1cc2cccnc2nc1N1CCN(CC(=O)Nc2ccc(F)cc2)CC1  MIC (microplate Alamar Blue; H37Rv): 64 µM
O=C(OCc1ccccc1)c1coc(-c2ccccn2)n1  MIC (H37Rv; 168 h): 1 to 4 µM
Cc1c(CNC(=O)c2ccc(-c3ccc(C(F)(F)F)nc3)cc2)c(=O)[nH]c2ccccc12  MIC (microbial growth, resazurin; H37RV): > 50 µg/mL
CC1=NN(CNC(=O)c2ccccc2)C(=O)C1=NNn1c(-c2ccccc2)nc2ccccc2c1=O  MIC (microbial growth, resazurin; H37RV): 6.49 µM
O=C1C=C(O)C(=O)c2ccccc21  MIC (resazurin microplate; H37Rv; 7 days + 24 h): > 147 µM
Cc1ccc2c(c1)C=CC1(CCc3c(nnn3-c3ccccc3)C1)O2 (centres unmarked)  MIC (microbial growth, resazurin; H37RV; 7 days): 1.56 µg/mL
N#Cc1cc2cccnc2nc1N1CCN(C(=O)CNc2ccccc2F)CC1  MIC (microplate Alamar Blue; H37Rv): 64 µM
Cc1[nH]c(=O)c(CNS(=O)(=O)c2ccc(C(F)(F)F)nc2)c2c1CCCC2  MIC (microbial growth, resazurin; H37RV): 3.5 µg/mL
Cc1ccc2[nH]c(C(=O)NC(C)C34CC5CC(CC(C5)C3)C4)cc2c1 (centres unmarked)  MIC (microplate alamarBlue; H37Rv): 1 µg/mL
CCCCNc1oc2c(c1C1CCN(Cc3ccccc3)CC1)C(=O)c1ccccc1C2=O  MIC (resazurin microplate; H37Rv; 7 days + 24 h): 18 µM
O=c1c2ccccc2[se]n1-c1ccccc1  MIC (microbial growth, resazurin; H37RV): 12.5 µg/mL
O=C1c2ccccc2C(=O)c2c1oc(NC1CCCCC1)c2-c1ccc([N+](=O)[O-])o1  MIC (resazurin microplate; H37Rv; 7 days + 24 h): 20 µM
Cc1c(Cc2ccc(S(C)(=O)=O)cc2)c(=O)n2c([nH]c3ccccc32)c1C#N  MIC (microbial growth, resazurin; H37RV): 1 µg/mL
O=c1c2ccccc2[se]n1CC1CCCCC1  MIC (microbial growth, resazurin; H37RV): ≥ 50 µg/mL
COc1cccc(-c2ccc(C(=O)NCc3c4c(c(C)[nH]c3=O)CCCC4)cc2)c1  MIC (microbial growth, resazurin; H37RV): > 25 µg/mL
O=C(NC12CC3CC(CC(O)(C3)C1)C2)c1cc2c(Cl)cc(Cl)cc2[nH]1  MIC (microbial growth, resazurin; H37RV): 1.32 to 2.89 µM
CC(C)=CCC/C(C)=C/CNCCNC1C2CC3CC(C2)CC1C3 (centres unmarked)  MIC (microbial growth, resazurin; ATCC27294 H37RV): ≤ 0.39 µg/mL
N#Cc1cc2cccnc2nc1N1CCN(C(=O)CNc2ccccc2I)CC1  MIC (microplate Alamar Blue; H37Rv): 50.2 µM
CC(C)(C)Nc1oc2c(c1-c1cc3ccccc3[nH]1)C(=O)c1ccccc1C2=O  MIC (resazurin microplate; H37Rv; 7 days + 24 h): 42 µM
CC(C)c1ccc(-c2nc(CN3CC[Si](C)(C)CC3)co2)cc1  MIC (microbial growth, resazurin; H37RV): 0.5 to 1 µg/mL
CCCc1c2c([nH]c(=O)c1C)C(=O)c1[nH]c(=O)c(C)c(CCC)c1C2=O  MIC (Microplate Alamar Blue; H37Rv; replicating bacteria): 0.1 µg/mL
NNC(=O)c1ccncc1  MIC (microbial growth, resazurin; H37RV): 0.04 µg/mL
Cc1ccc2nc(C)c(C(=O)NCc3ccc(S(F)(F)(F)(F)F)cc3)n2c1  MIC (microbial growth, resazurin; H37RV): 0.007 µM
Cc1c(Cc2ccc([S+](C)[O-])cc2)c(=O)n2c([nH]c3ccccc32)c1C#N (centres unmarked)  MIC (microbial growth, resazurin; H37RV): 2 µg/mL
Cc1ccc(-n2nnc3c2CCC2(C=Cc4cc(Cl)ccc4O2)C3)cc1 (centres unmarked)  MIC (microbial growth, resazurin; H37RV; 7 days): 25 µg/mL
CC(NC(=O)c1cc2ccccc2[nH]1)C12CC3CC(CC(C3)C1)C2 (centres unmarked)  MIC (microplate alamarBlue; H37Rv): 2 µg/mL
N#Cc1cc2cccnc2nc1N1CCN(CC(=O)Nc2cccc(C(F)(F)F)c2)CC1  MIC (microplate Alamar Blue; H37Rv): 28.4 µM
O=C(NCc1ccccc1)c1cc2c(F)cc(F)cc2[nH]1  MIC (microplate alamarBlue; H37Rv): > 32 µg/mL
Cc1c(Cc2ccc(Cl)cc2)c(=O)n2c([nH]c3ccccc32)c1C#N  MIC (microbial growth, resazurin; H37RV): 0.5 µg/mL
COc1cc(C)cc(-c2ccc(C(=O)NCc3c4c(c(C)[nH]c3=O)CCCC4)cc2)c1  MIC (microbial growth, resazurin; H37RV): 7.2 µg/mL
N#Cc1cc2cccnc2nc1N1CCN(C(=O)CNc2ccc(F)cc2)CC1  MIC (microplate Alamar Blue; H37Rv): 67.1 µM
O=[N+]([O-])c1cn2c(n1)OC[C@@H](OCc1ccc(OC(F)(F)F)cc1)C2  MIC (drug-sensitive clinical strain 2, 7H9 glucose glycerol BSA medium): > 5 µg/mL
COc1ccc(Cn2[se]c3ccccc3c2=O)cc1  MIC (microbial growth, resazurin; H37RV): 25 µg/mL
CC(NC(=O)c1cc2ccc(Br)cc2[nH]1)C12CC3CC(CC(C3)C1)C2 (centres unmarked)  MIC (microplate alamarBlue; H37Rv): 0.25 µg/mL
Cc1c2c([nH]c(=O)c1CNC(=O)c1ccc([N+](=O)[O-])s1)CCCC2  MIC (microbial growth, resazurin; H37RV): 5.5 µg/mL
N#Cc1cc2cccnc2nc1N1CCN(C(=O)c2ccc([N+](=O)[O-])o2)CC1  MIC (microplate Alamar Blue; H37Rv): 16.5 µM
O=C(NC1CCCCCCC1)c1ccc2ccccc2c1  MIC (microbial growth, resazurin; H37RV): ≤ 4 µg/mL
Cc1[nH]c(=O)c(CNC(=O)Cc2ccc(C(F)(F)F)cc2)c2c1CCCC2  MIC (microbial growth, resazurin; H37RV): 20 µg/mL
N#Cc1cc2cccnc2nc1N1CCN(C(=O)CCl)CC1  MIC (microplate Alamar Blue; H37Rv): 79.2 µM
O=C(O)c1cn(C2CC2)c2cc(N3CCNCC3)c(F)cc2c1=O  MIC (microbial growth, resazurin; H37RV): 9.4 µM
CCCCNc1oc2c(c1-c1cc(OC)c(OC)c(OC)c1)C(=O)c1ccccc1C2=O  MIC (resazurin microplate; H37Rv; 7 days + 24 h): 147 µM
[N-]=[N+]=Nc1ccc(NC(=O)c2ccccc2[Se]C#Cc2ccccc2)cc1  MIC (microbial growth, resazurin; H37RV): ≥ 50 µg/mL
COc1cc(OC)cc(-c2ccc(C(=O)NCc3c(C)c4c([nH]c3=O)CCCC4)cc2)c1  MIC (microbial growth, resazurin; H37RV): > 25 µg/mL
COc1ccc(-n2nnc3c2CCC2(C=Cc4cc(Cl)c(C)cc4O2)C3)cc1 (centres unmarked)  MIC (microbial growth, resazurin; H37RV; 7 days): 6.25 µg/mL
CC(C)(C)Nc1oc2c(c1-c1ccc([N+](=O)[O-])o1)C(=O)c1ccccc1C2=O  MIC (resazurin microplate; H37Rv; 7 days + 24 h): > 147 µM
Cc1c2c([nH]c(=O)c1CNC(=O)c1ccc(F)nc1)CCCC2  MIC (microbial growth, resazurin; H37RV): > 50 µg/mL
COc1ccc(-n2nnc3c2CCC2(C=Cc4cc(C)ccc4O2)C3)cc1 (centres unmarked)  MIC (microbial growth, resazurin; H37RV; 7 days): 1.56 µg/mL

Some of these lines once more:
CCCCNc1oc2c(c1C1CCN(Cc3ccccc3)CC1)C(=O)c1ccccc1C2=O  MIC (resazurin microplate; H37Rv; 7 days + 24 h): 18 µM
O=c1c2ccccc2[se]n1-c1ccccc1  MIC (microbial growth, resazurin; H37RV): 12.5 µg/mL
O=C1c2ccccc2C(=O)c2c1oc(NC1CCCCC1)c2-c1ccc([N+](=O)[O-])o1  MIC (resazurin microplate; H37Rv; 7 days + 24 h): 20 µM
Cc1c(Cc2ccc(S(C)(=O)=O)cc2)c(=O)n2c([nH]c3ccccc32)c1C#N  MIC (microbial growth, resazurin; H37RV): 1 µg/mL
O=c1c2ccccc2[se]n1CC1CCCCC1  MIC (microbial growth, resazurin; H37RV): ≥ 50 µg/mL
